# Assay results of several laboratories.
# Numbers after ± are the reported error.
# LGALS1: Galectin-1 (LGALS1, Homo sapiens, UniProt P09382)
# BPTF bromodomain: Nucleosome-remodeling factor subunit BPTF, bromodomain (BPTF, Homo sapiens, UniProt Q12830)
SMILES,target,test,test system,setting,Kd
N=C(N)NCCC[C@@H]1NC(=O)[C@H](Cc2ccc3ccccc3c2)NC(=O)[C@@H](Cc2ccccc2)NC(=O)[C@H](Cc2ccccc2)NC(=O)[C@H](CCC(=O)NCCOCCOCC(=O)N[C@@H](CCCCNC(=S)Nc2ccc3c(c2)C(=O)OC32c3ccc(O)cc3Oc3cc(O)ccc32)C(N)=O)NC(=O)[C@@H](CCCNC(=N)N)NC(=O)[C@H](CCCNC(=N)N)NC(=O)[C@@H](CCCNC(=N)N)NC1=O,fetal bovine serum proteins,"binding, fluorescence polarization",,1 h,29 ± 3 µM
Cc1ccc2c(c1)OC(O)(C(=O)O)C(=O)N2Cc1ccccc1 (stereo not drawn),"Dihydroxy-acid dehydratase, chloroplastic (DHAD, Arabidopsis thaliana, UniProt Q9LIR4)",microscale thermophoresis,,,< 3 µM
C[Si](C)(C)c1cc2c3c(c1)O[C@H](CO)[C@H](O)[C@@H]3OC2,LGALS1,"ligand displacement, FP",,,> 6000 µM
CC[C@H](C)[C@H](NC(=O)[C@H](CCCCN)NC(=O)[C@H](CCCCN)NC(=O)[C@@H](NC(=O)[C@H](CCC(=O)O)NC(=O)[C@H](CCC(=O)O)NC(=O)[C@H](CCC(=O)O)NC(=O)[C@H](CO)NC(=O)[C@H](CC(C)C)NC(=O)[C@H](CC(=O)O)NC(=O)[C@H](CC(C)C)NC(=O)CNC(=O)[C@H](CCCNC(=N)N)NC(=O)[C@H](CC(C)C)NC(=O)[C@H](CO)NC(=O)CNC(=O)CNC(=O)CNC(=O)CCCC[C@@H]1SC[C@@H]2NC(=O)N[C@@H]21)C(C)C)C(=O)N[C@@H](CC(C)C)C(=O)N[C@@H](CC(=O)O)C(=O)N[C@@H](CCC(=O)O)C(=O)N[C@H](C(=O)N[C@H](C(=O)N[C@@H](CCCCN)C(=O)N[C@@H](CC(=O)O)C(=O)N[C@@H](C)C(=O)N[C@@H](CO)C(=O)N[C@@H](CC(=O)O)C(=O)O)C(C)C)[C@@H](C)CC,Fab B11 antibody (human),"binding, biolayer interferometry",,together with: biotinylated peptide on tips,0.02 ± 0.001 µM
CC(=O)N[C@@H]1[C@@H](O[C@@H]2O[C@H](C(=O)O)[C@@H](O[C@@H]3O[C@H](COS(=O)(=O)O)[C@@H](OS(=O)(=O)O)[C@H](O[C@@H]4O[C@H](C(=O)O)[C@@H](OS(=O)(=O)O)[C@H](OS(=O)(=O)O)[C@H]4OS(=O)(=O)O)[C@H]3NC(C)=O)[C@H](OS(=O)(=O)O)[C@H]2OS(=O)(=O)O)[C@H](OS(=O)(=O)O)[C@@H](COS(=O)(=O)O)O[C@H]1N=[N+]=[N-],"Fibroblast growth factor 1 (FGF1, Homo sapiens, UniProt P05230)","ligand displacement, FP",,,0.051 µM
OC[C@H]1Oc2cc(Cc3ccc(F)cc3)cc3c2[C@@H](OC3)[C@H]1O,"Galectin-9, N-terminal CRD (LGALS9, Homo sapiens, UniProt O00182)","binding, competitive fluorescence polarization",,"20 °C, galectin-9 N-terminal domain 1.0 µM",> 1000 µM
CC[C@H](C)[C@H](NC(=O)[C@@H]1CCCN1C(=O)[C@@H](NC(=O)[C@H](C)N)C(C)C)C(=O)N[C@@H](C)C(=O)N[C@@H](CCC(N)=O)C(=O)N[C@@H](CCCCN)C(=O)N[C@@H](CO)C(=O)N[C@@H](CCC(=O)O)C(=O)N1CCC[C@H]1C(=O)N[C@@H](Cc1c[nH]cn1)C(=O)N[C@@H](CO)C(=O)N[C@@H](CC(C)C)C(=O)N[C@@H](CO)C(=O)N[C@@H](CO)C(=O)O,"Baculoviral IAP repeat-containing protein 5 (BIRC5, Homo sapiens, UniProt O15392)","binding, ITC",,pH 7.5,121 µM
CC(=O)NCCCC[C@H](NC(=O)CNC(=O)[C@H](C)NC(=O)[C@H](CCCCN)NC(=O)CNC(=O)CNC(=O)[C@H](C)NC(=O)[C@@H](N)Cc1ccc(O)cc1)C(=O)N[C@@H](CC(=O)O)C(=O)N[C@@H](CO)C(=O)NCC(=O)N[C@@H](CCCCN)C(=O)N[C@@H](C)C(=O)N[C@@H](CCCCNC(C)=O)C(=O)N[C@H](C(=O)N[C@@H](CCCCNC(C)=O)C(=O)N[C@@H](C)C(=O)N[C@H](C(=O)N[C@@H](CO)C(=O)N[C@@H](CCCNC(=N)N)C(N)=O)C(C)C)[C@@H](C)O,BPTF bromodomain,"bromodomain binding, PrOF NMR titration",,"pH 7.4, 5-fluorotryptophan-labelled bromodomain, 40-50 µM",650 µM
CC(C)CC[C@@H]1NCCN([C@@H](CCC(C)C)C(=O)N2CCN([C@@H](CCC(N)=O)C(N)=O)C(=O)[C@@H]2C)C1=O,"Histone acetyltransferase p300, CH1 domain (EP300, Homo sapiens, UniProt Q09472)","binding, tryptophan fluorescence",,,0.16 ± 0.06 µM
CC1CC(C)(C)N(C(=O)CN2C(=O)c3ccccc3C2=O)c2ccc(C(=O)N3CCN(C(=O)CCC4=[N+]5C(=Cc6ccc(-c7ccc[nH]7)n6[B-]5(F)F)C=C4)CC3)cc21 (stereo not drawn),"Mucolipin-1 (MCOLN1, Homo sapiens, UniProt Q9GZU1)",BRET kinetics,HEK293T,,0.8 ± 0.4 µM
CC(=O)NCCCC[C@H](NC(=O)CNC(=O)[C@H](CO)NC(=O)[C@H](CC(=O)O)NC(=O)[C@H](CCCCN)NC(=O)CNC(=O)[C@H](C)NC(=O)[C@H](CCCCN)NC(=O)CNC(=O)CNC(=O)[C@H](C)NC(=O)[C@@H](N)Cc1ccc(O)cc1)C(=O)N[C@@H](C)C(=O)N[C@@H](CCCCN)C(=O)N[C@@H](C)C(=O)N[C@@H](CCCCNC(C)=O)C(=O)N[C@@H](C)C(=O)N[C@H](C(=O)N[C@@H](CO)C(=O)N[C@@H](CCCNC(=N)N)C(N)=O)C(C)C,BPTF bromodomain,"bromodomain binding, PrOF NMR titration",,"pH 7.4, 5-fluorotryptophan-labelled bromodomain, 40-50 µM",880 µM
CN1CCC(NC(=O)c2ccc(-c3cc(-c4ccc(F)cc4)c4oc5c(c4c3)CCN(C(=O)/C=C/c3ccc(N)nc3)C5)nn2)C(F)(F)C1 (stereo not drawn),"Serine/threonine-protein kinase PAK 4 (PAK4, Homo sapiens, UniProt O96013)",surface plasmon resonance,,,8.2 µM
CC(=O)NCCCC[C@H](NC(=O)[C@H](C)NC(=O)[C@H](CCCCN)NC(=O)CNC(=O)[C@H](CO)NC(=O)[C@H](CC(=O)O)NC(=O)[C@H](CCCCN)NC(=O)CNC(=O)[C@H](C)NC(=O)[C@H](CCCCN)NC(=O)CNC(=O)CNC(=O)[C@H](C)NC(=O)[C@@H](N)Cc1ccc(O)cc1)C(=O)N[C@H](C(=O)N[C@@H](CCCCNC(C)=O)C(=O)N[C@@H](C)C(=O)N[C@H](C(=O)N[C@@H](CO)C(=O)N[C@@H](CCCNC(=N)N)C(N)=O)C(C)C)[C@@H](C)O,BPTF bromodomain,"bromodomain binding, PrOF NMR titration",,"pH 7.4, 5-fluorotryptophan-labelled bromodomain, 40-50 µM",830 µM
NCCCC[C@H](NC(=O)[C@H](CC(N)=O)NC(=O)[C@H](CCCCNC(=O)[C@H](Cc1ccc(B(O)O)cc1)NC(=O)[C@H](Cc1ccc(O)cc1)NC(=O)[C@@H](N)Cc1ccc(B(O)O)cc1)NC(=O)[C@H](Cc1ccc(B(O)O)cc1)NC(=O)[C@H](Cc1ccc(O)cc1)NC(=O)[C@@H](N)Cc1ccc(B(O)O)cc1)C(=O)N[C@@H](CO)C(=O)N[C@@H](Cc1ccc(O)cc1)C(N)=O,HIV-1 RRE IIB RNA,"binding, EMSA",,,4.6 µM
CC(C=CC=CC=CC1=C(C)CCCC1(C)C)=CCO,"Rhodopsin, apoprotein (opsin) (RHO, Bos taurus, UniProt P02699)",Trp fluorescence quenching,opsin membranes,titration up to 1 µM,0.0349 µM
N#Cc1cnc2sc(C(=O)O)cc2c1N1CCc2[nH]nc(C(=O)N[C@@H](CC(=O)NCCOCCN3CCOCC3)c3cccc(Br)c3)c2C1,"Interleukin-1 receptor-like 2, D1-D3 domains (IL1RL2, Homo sapiens, UniProt Q9HB29)",SPR,,IL-36R D1-D3 extracellular domain,0.105 µM
CC#Cc1cc2c3c(c1)O[C@H](CO)[C@H](O)[C@@H]3OC2,LGALS1,"ligand displacement, FP",,,840 µM
COc1cncc(-c2cc(F)cc(CNC(=O)c3cc(N4CC[C@@](C#N)(C5CC5)C4=O)cc(C)n3)c2)c1,"Proline--tRNA ligase (Plasmodium falciparum, UniProt Q8I5R7)","binding, MST",,,0.0875 µM
CC(C)C[C@H](NC(=O)[C@H](CC(C)C)NC(=O)[C@H](CC(C)C)NC(=O)[C@H](CO)NC(=O)[C@H](CCCCN)NC(=O)[C@H](CCC(N)=O)NC(=O)[C@H](CCCCN)NC(=O)[C@H](Cc1ccccc1)NC(=O)[C@H](Cc1ccccc1)NC(=O)[C@@H]1CCCN1C(=O)[C@H](CCC(=O)O)NC(=O)[C@@H](NC(=O)CNC(=O)[C@@H](NC(=O)[C@H](CO)NC(=O)[C@H](CCC(N)=O)NC(=O)[C@@H](N)CS)[C@@H](C)O)[C@@H](C)O)C(=O)O,"DNA repair protein REV1 (Homo sapiens, UniProt Q9UBZ9)","binding, SPR",,pH 7.5,~69 µM
C[C@H](NC(=O)[C@H](Cc1ccc(O)cc1)NC(=O)[C@H](Cc1ccccc1)NC(=O)[C@H](CCC(=O)O)NC(=O)[C@H](CCC(=O)O)NC(=O)[C@H](CCC(N)=O)NC(=O)[C@H](CCCCN)NC(=O)[C@@H](NS(=O)(=O)c1cccc2c(N(C)C)cccc12)[C@@H](C)O)C(=O)O,"Rho guanine nucleotide exchange factor TIAM1, PDZ domain (TIAM1, Homo sapiens, UniProt Q13009, K912E)",fluorescence anisotropy,,"25 °C, together with: N-terminally dansylated peptide",135 ± 23 µM
Cc1cc2nc(NC(=O)C3CC3)sc2cc1Oc1ccc(F)c(NC(=O)Cc2cccc(C(F)(F)F)c2)c1,"Receptor-interacting serine/threonine-protein kinase 3 (RIPK3, Homo sapiens, UniProt Q9Y572)","binding, competition with immobilised ligand",,,> 5 µM
CC1=CC(C)=[N+]2C1=Cc1ccc(CCC(=O)NCCOCCOCCOCCOCC(=O)N[C@H](C(=O)N3C[C@H](O)C[C@H]3C(=O)NCc3ccc(-c4scnc4C)cc3)C(C)(C)C)n1[B-]2(F)F,"von Hippel-Lindau disease tumor suppressor, with elongin B/C (VHL, Homo sapiens, UniProt P40337)","binding, TR-FRET",,"90 to 300 min, total binding",~0.003 µM
C[C@H](OP(=O)(O)O)[C@H]1NC(=O)CN(C)C(=O)[C@@H](C)NC(=O)[C@H](CCC(=O)N[C@@H](CCCCN)C(N)=O)NC(=O)[C@H](Cc2ccc(O)cc2)NC(=O)[C@H](Cc2ccc3ccccc3c2)NC(=O)[C@@H]2CCCCN2C1=O,"Peptidyl-prolyl cis-trans isomerase NIMA-interacting 1 (PIN1, Homo sapiens, UniProt Q13526, S16A/Y23A)","binding, fluorescence anisotropy",,,0.258 ± 0.066 µM
NC(=O)CNC(=O)CN(CCc1ccc(C(F)(F)F)cc1)C(=O)[C@@H](Cc1ccccc1)NC(=O)CNCc1ccc(Cl)c(Cl)c1,"Matrix metalloproteinase-14 (MMP14, Homo sapiens, UniProt P50281)","binding, FP",,,> 200 µM
